# Measurements gathered from unrelated publications.
# Parts stem from different laboratories: compare values within a part only.

# Sample 1
# Target: Interferon regulatory factor 3, full length, phosphomimetic (IRF3, Homo sapiens, UniProt Q14653, residues 1-427, S386D/S396D/S398D/S402D/T404D/S405D)
# Technique: protein-binding microarray
# Molecule type: double-stranded DNA, one strand shown
# Sample: in vitro
# Concentration: 2540 nM top
# Notes: 60-bp whole probe
# Together with: salmon DNA 0.4 mg/ml
# Baseline: random background probes
# Reading: higher = stronger binding
# Constant ends, left off below: GCCTAGCAC … GTCTTGATTCGCTTGACGCTGCTG
# Construct (chain): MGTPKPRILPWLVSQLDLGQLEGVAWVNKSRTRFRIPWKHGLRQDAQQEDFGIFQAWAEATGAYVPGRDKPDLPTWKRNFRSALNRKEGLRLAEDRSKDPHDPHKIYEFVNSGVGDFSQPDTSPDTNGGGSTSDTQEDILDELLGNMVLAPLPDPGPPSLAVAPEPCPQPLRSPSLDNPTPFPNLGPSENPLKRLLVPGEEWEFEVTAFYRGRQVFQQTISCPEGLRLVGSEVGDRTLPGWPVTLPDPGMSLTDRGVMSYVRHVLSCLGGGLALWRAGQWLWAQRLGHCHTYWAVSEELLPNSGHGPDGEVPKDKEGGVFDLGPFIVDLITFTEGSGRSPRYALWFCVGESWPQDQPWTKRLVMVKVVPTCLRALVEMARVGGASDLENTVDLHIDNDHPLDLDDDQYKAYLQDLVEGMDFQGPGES
Oligonucleotide,fitted relative affinity [z-score]
TCAATTATTGCTTCCTCACTGTGCTAG,0.343
GACGAACTGGCGTTTCGAGACGTGCTA,0.331
GACGTTTTCAGACTGGAGACGTGCTAG,1.75
TTAGGTTTCCACTATCGGTTAGTGCTA,3.19
GACGGTATCGAGTTTCGGGACGTGCTA,2.34
TCATTTTTCATTTTTTTACTGTGCTAG,2.85
TTAGGAATGGACTTTCGGTTAGTGCTA,1.33
TCATTTTTTTTTTTTGTACTGTGCTAG,1.24
TCAGATTTCAATTAGAAACTGTGCTAG,1.8
TTAGGTATCGACACTAGGTTAGTGCTA,0.28
TCAGCTACCTCTCTTAGACTGTGCTAG,-0.0599
GCAGGAGAGACAGAAGTTATGTGCTAG,-0.816
GACTGTCTCCTTCTCCTGACGTGCTAG,4.1
GACGAACCGAGTCTCGAGACGTGCTAG,0.0454
CACGATTTCAGACTGGAGACGTGCTAG,0.602
TTAGGACCGGGGTTTCGGTTAGTGCTA,2.5
TCAGCTTTCCTTCATGCACTGTGCTAG,2.18
TTCGATCTCAGACTGGATTAGTGCTAG,0.479

# Sample 2
# Target: PABPC1L2, full length, GST fusion (mouse, UniProt A0ABA7IW68)
# Technique: RNAcompete
# Molecule type: RNA
# Sample: in vitro
# Concentration: 20 nM
# Notes: 7-mer, probes averaged, single round
# Baseline: mean of 7-mers
# Reading: higher = stronger binding
# Residues (chain): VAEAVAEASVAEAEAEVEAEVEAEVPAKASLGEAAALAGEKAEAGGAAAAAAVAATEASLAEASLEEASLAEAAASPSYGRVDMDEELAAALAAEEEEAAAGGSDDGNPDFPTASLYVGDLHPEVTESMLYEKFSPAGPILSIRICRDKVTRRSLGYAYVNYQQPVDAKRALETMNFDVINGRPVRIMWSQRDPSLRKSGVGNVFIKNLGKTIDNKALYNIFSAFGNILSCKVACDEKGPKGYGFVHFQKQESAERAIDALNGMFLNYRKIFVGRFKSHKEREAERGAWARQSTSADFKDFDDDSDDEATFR
Oligonucleotide,7-mer Z-score
ACCCCGC,-0.382
GUCGCCC,-0.425
CCAAGGU,-0.139
ACUUAGU,-0.2
GAAACGC,0.0152
CGCGAAC,-0.235
GUUCGAG,-0.277
GAGUAGA,0.075
CCGGGCC,-0.3
CGGGUCG,0.0116
UGGUUGC,-0.113
CGAUGCG,-0.106
GGACGAC,0.0551
CUCUCUU,-0.298
CUCAUUU,-0.267
UCAGGCG,-0.0101
UUUUCGA,-0.226
CCAAGUC,-0.3
GCGGGAA,0.265
AAUGUAG,0.00436
GGAGCAA,0.427
CUAGGUG,-0.0482
GAGCGUA,-0.191
CUGCUCG,-0.251
UUUCCGA,-0.3

# Sample 3
# Target: Histone acetyltransferase KAT6A, winged helix 1, GST fusion (KAT6A, Homo sapiens, UniProt Q92794, residues 1-85)
# Technique: protein binding microarray
# Molecule type: double-stranded DNA, one strand shown
# Sample: in vitro
# Concentration: not given
# Notes: 8-mer, flanks averaged, mean of 2 arrays, mostly near background
# Baseline: not given
# Reading: higher = stronger binding
# Target sequence (chain): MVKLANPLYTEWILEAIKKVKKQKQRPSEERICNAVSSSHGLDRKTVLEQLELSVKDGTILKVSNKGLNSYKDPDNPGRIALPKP
Oligonucleotide,E-score
AGGTAATG,0.00743
CAACAAGA,-0.155
ACCTTCGA,-0.136
CACCGGGG,0.225
CCTGATTC,-0.208
AATCCACT,-0.324
CATGGGGA,-0.135
ACCGCCAG,0.107
ACGGTCCT,-0.011
GAAAGAGC,-0.0393
ACGGCCCT,0.26
GTTTTCCA,-0.0107
CGTGCGCC,0.371
AACTCCCG,0.253
ACATCGTC,-0.181
AGTCAATA,-0.097
ACGTCAAT,-0.00699
CCTCTGCA,-0.138
CTCAAAAG,0.0284
GTAGGGGA,-0.161
TAAATCAA,-0.209
CGGGTCGC,0.416
CACTCTGG,-0.188
AGTTATGG,-0.173

# Sample 4
# Target: Prothrombin, mature alpha-thrombin (F2, Homo sapiens, UniProt P00734)
# Technique: aptamer microarray, sandwich
# Molecule type: DNA with 2'F-ANA
# Sample: in vitro
# Concentration: 200 nM
# Notes: whole 15-mer aptamer, many near background
# Together with: Cy3 exosite-II aptamer, 400 nM
# Reading: higher = stronger binding
# Oligonucleotide: GGTTGGTGTGGTTGG
Modification,mean fluorescence intensity
2'F-ANA at 1 3 5 6 7 8 10 11 12 14 15,81.9 a.u.
2'F-ANA at 5 6 8 10 11 15,45.5 a.u.
2'F-ANA at 2 4 5 8 9 10 11 12 13,55.9 a.u.
2'F-ANA at 3 6 8 10 11 12 14 15,323 a.u.
2'F-ANA at 1 5 6 7 9 11 13 14 15,48 a.u.
2'F-ANA at 1 2 5 6 8 10 12 13,58.7 a.u.
2'F-ANA at 1 2 4 6 7 9 10 13,60.2 a.u.
2'F-ANA at 1 2 5 7 9 10 12 14 15,47.1 a.u.
2'F-ANA at 5 9 11 12 13,93.4 a.u.
2'F-ANA at 1 5 6 7 11 14,54.7 a.u.
2'F-ANA at 1 2 3 5 6 8 11 12 14,49.9 a.u.
2'F-ANA at 3 6 7 9 15,921 a.u.
2'F-ANA at 1 2 4 7 8 9 10 12 13 14 15,52.1 a.u.
2'F-ANA at 1 6 7 9 11 13,106 a.u.
2'F-ANA at 1 4 7 9 11 12 14,67.3 a.u.
2'F-ANA at 1 2 3 5 7 8,68 a.u.
2'F-ANA at 1 3 4 5 8 13 14 15,59.3 a.u.
2'F-ANA at 1 2 5 9 12 15,105 a.u.
2'F-ANA at 2 3 4 5 7 11 13,88.8 a.u.
2'F-ANA at 2 3 4 5 7 11 13 14,49.5 a.u.
2'F-ANA at 2 3 6 7 8 11 12 13 15,761 a.u.
2'F-ANA at 2 4 5 6 13,57.2 a.u.
2'F-ANA at 1 2 4 8 11 14,57.4 a.u.
2'F-ANA at 2 4 5 6 7 10 13 14,55.8 a.u.
2'F-ANA at 2 3 7 10 11 13 14 15,289 a.u.

# Sample 5
# Target: RNA binding protein fox-1 homolog 2, RRM domain, GST-SBP tag (RBFOX2, Homo sapiens, UniProt O43251-10, residues 100-194)
# Technique: RNA Bind-n-Seq
# Molecule type: RNA
# Sample: in vitro
# Concentration: 365 nM
# Notes: natural RNA segment, single round, ends assumed
# Baseline: no-protein control
# Reading: higher = stronger binding
# Residues (chain): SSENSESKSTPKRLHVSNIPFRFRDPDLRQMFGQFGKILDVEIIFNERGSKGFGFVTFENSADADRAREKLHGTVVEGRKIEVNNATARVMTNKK
Oligonucleotide,RBNS enrichment (R)
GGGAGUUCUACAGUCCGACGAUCGAGAGCAACCUCCUCCCUCGUAGAGGGAGAUUAUAUCCCCAACUCCAGGGACCUCUUUAUCUCAAUCUAUUUAUUUGGCAUCCUGGGAGGGAUUUCCAAUAGUAAUUUAUUGGAAUUCUCGGGUGCCAA,0.25
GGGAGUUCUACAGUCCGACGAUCCUGAAGACCAGCAGACACCAGACUUUAAAAGUGCUUAAAUUGGAAUUUGGAAACUACAGUAAAGAAACCUUCAGAUACCAGUUCCAUCCUGAAGCCCUCUGUUGAACAACUGGAAUUCUCGGGUGCCAA,0.407
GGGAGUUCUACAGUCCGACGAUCAUUCAACAUUUUCAUGACCUGGUUAUAGCCUUUGCUGGUGUUUUUAAAAUAUCUUGACUCAGUGACAAAACCCGAGUCCUUUUUUAAAAAAACAAAAACAAACAACAAAAUGGAAUUCUCGGGUGCCAA,0.486
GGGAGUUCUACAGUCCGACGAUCGGAUCCCUGUAGCCAAAACAGUAUAUGAUCCAGCUGCAGAGAGCAGACUGCUCUCAGCUUGCACAGCACCUUAGGCGAGGGAAGAAUAUACGGAUAGGGAAUGGGGUGGAUGGAAUUCUCGGGUGCCAA,1.13
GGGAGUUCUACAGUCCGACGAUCUUUUUAUAUGAUUUUCUUGACUGCACGUUGGCCAGAAGGACUGCUGGCCUGGCCUCCUUUCCGUCCGGGCAGCUGUGCUGCAGAGACAAAAAGUGGUGCUGAGGGACUCCUGGAAUUCUCGGGUGCCAA,0.291
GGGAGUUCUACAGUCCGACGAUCGGGCCAUGUGAUUGUUUUAUUUUGGAAUUGGUGUAUAUCAUGAAGCCUUGCUGAACUAAGUUUUGUGUGUAUAUAUUUAAAGAUCAGUGUUUAAAUAAAAAAAAAAAAAAUGGAAUUCUCGGGUGCCAA,0.69
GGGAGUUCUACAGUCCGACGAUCUAACUAAGGUUUUGCUACUAAUGUCAGCCAUUUACUCUCCCACUAAUUGGGAUUAUUUUUUAAAAGAGGUCUUUCUCCCCGAAAUACAAGUUUUAGAAAAUCUUAGAAGAUGGAAUUCUCGGGUGCCAA,0.552
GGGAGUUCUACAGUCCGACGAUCGGCUGGUGCUGGUGCCAUGGACUCUGCCCAGAGCCUUCUUGUUUAUGAUCAGCUCCAGCUACCUGGGCAGUUGUGGUGGGGUGGAUGGGAAGGCCCACAGCCCAAGGGAUUGGAAUUCUCGGGUGCCAA,1.15
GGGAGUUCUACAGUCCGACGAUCAGUCCCAGCCUUCAUCCAUGUGAUUAAGAUCCAGGCCGCUGAAGUUCCCCAGGAAAUGAUCUUCCACUUGAGCAACCUUUUACUUGAUACGAUUUGCACCUUUCUGUUUUUGGAAUUCUCGGGUGCCAA,1.44
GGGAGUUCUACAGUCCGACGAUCUUUCCUUGUCCUUGAGUUUUCCUAUGAAAGAAAUAUAUUUUGUUAGAUUUGAAUUAUCGAGGCAUUUAUUGUGUACUCUUCAACAGUGCUAAAUAAAACAACAUACCAAGUGGAAUUCUCGGGUGCCAA,0.42
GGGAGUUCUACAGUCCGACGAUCUGGCUCCAGAGCUGCUGUUCCCAUCCACGCCAGUGGCCUCGGUCCCUUCUGUGCCAGGCAUUCUGGUCACUGACCUUGAACUAGGCCUGCAGGCUCUCCUGUCACCCCGCUGGAAUUCUCGGGUGCCAA,0.339
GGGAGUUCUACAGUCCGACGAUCCCAGCAUACUCCAAACUGUUUCUGAUGUGUUCCAUGAGAAAAGGAUUGUUUGCUCAAAAAGCUUGGAAAAUACUACACACUCCCUUUCUCCUUCUGGAGAUCAACCCACAUGGAAUUCUCGGGUGCCAA,0.375

# A few entries again (sample 3):
Oligonucleotide,E-score
ACCTTCGA,-0.136
TAAATCAA,-0.209
GAAAGAGC,-0.0393
CACCGGGG,0.225
AGTCAATA,-0.097
AACTCCCG,0.253
CCTCTGCA,-0.138
GTAGGGGA,-0.161
GTTTTCCA,-0.0107
AGTTATGG,-0.173
CAACAAGA,-0.155
ACGGCCCT,0.26
CGGGTCGC,0.416
ACCGCCAG,0.107
AATCCACT,-0.324
CTCAAAAG,0.0284
